Experimental data from different studies.
Protocols differ between the studies behind these lines. Values joined by “and” are separate records of one study, mostly repeats; a detail may differ.

OC(CCN1CCCCC1)(c1ccccc1)C1CC2C=CC1C2 (stereo not shown) — change, Theta power, EEG Pz-O2 (resting-state EEG; healthy elderly humans; oral, 2 mg, eyes closed, LS mean; baseline: baseline): -17.9%
CCn1cc(-c2cc(Cn3ccnc3)cc3c2CCN([C@H](c2cc(OC)ccn2)C2CC2)C3=O)c(C(F)(F)F)n1 — EC50 (Toledo; cell growth; 120 h): 15.3 nM
CC(C)n1c(/C=C/C(O)CC(O)CC(=O)O)c(-c2ccc(F)cc2)c2ccccc21 (stereo not shown) — inhibition (Nedd8-cullin1 interaction; neddylation, AlphaScreen; 100 µM): 21.4%
O=C(/C=C/C=C/C=C/C1CCCCC1)NC1=C[C@@](O)(/C=C/C=C/C=C/C(=O)NC2=C(O)CCC2=O)[C@@H]2O[C@@H]2C1=O — GI50 (HGC-27; cell growth, CellTiter-Glo; 78 h): 17500 nM
CC1=C(Cc2cn(CCN3CCC(=O)CC3)nn2)C(=O)c2ccccc2C1=O — killing (Schistosoma mansoni; adult worms; 10 µM, 48 h): 47.2%
O=c1c(-c2ccc(O)cc2)coc2c([C@@H]3O[C@H](CO)[C@@H](O)[C@H](O)[C@H]3O)c(O)ccc12 — inhibition (Nedd8-cullin1 interaction; neddylation, AlphaScreen; 100 µM): 14.3%
Cc1[nH]c2ccccc2c1CCNCc1ccc(/C=C/C(=O)NO)cc1 — IC50 (HD-MB03; cell growth; 168 h, single agent): 9.47 nM
CCn1cc(-c2cc(Cn3ccoc3=N)cc3c2CCN([C@@H](C)c2cc(OC)ccn2)C3=O)c(C(F)(F)F)n1 — EC50 (NCI-H358; cell growth, inhibitor; 120 h): 159 nM
CC1=C(Cc2cn(CC#N)nn2)C(=O)c2ccccc2C1=O — killing (Schistosoma mansoni; adult worms; 25 µM, 24 h): 38.5%
Cc1ccc(Nc2cnnc3ccc(-c4ccc(N5CCN(C)CC5)cc4)cc23)cn1 — phenotypic severity score (Schistosoma mansoni; adult worms; 10 µM, 48 h; direction not given): 2
CC1=C(Cn2cc(CN3CCOCC3)nn2)C(=O)c2ccccc2C1=O — killing (Schistosoma mansoni; adult worms; 25 µM, 48 h): 46.5%
[Ca+2] — desensitization time constant (human TRPA1 W1103A; ion current, two-electrode voltage clamp; Xenopus oocytes; -80 mV, with: AITC): 159 s and 192 s and 205 s and 260 s and 223 s and 196 s
COc1cc2nc(N3CCN(C(=O)c4ccco4)CC3)nc(N)c2cc1OC — inhibition (Nedd8-cullin1 interaction; neddylation, AlphaScreen; 100 µM): 34.2%
NC(=O)c1cnc2[nH]ccc2c1N[C@@H]1[C@@H]2CC3C[C@H]1C[C@@](O)(C3)C2 — percent change (total naive T cells, flow cytometry; Caucasian humans, peripheral blood; 200 mg single dose; baseline: baseline): -2.88%
CO[C@]12C[C@@H](COC(=O)c3cncc(Br)c3)CN(C)[C@@H]1Cc1cn(C)c3cccc2c13 — inhibition (Nedd8-cullin1 interaction; neddylation, AlphaScreen; 100 µM): -3.5%
COc1ccc(Nc2cnnc3ccc(-c4ccc(S(=O)(=O)N5CCN(C)CC5)cc4)cc23)cc1 — phenotypic severity score (Schistosoma mansoni; adult worms; 10 µM, 24 h; direction not given): 0
C[C@H]1c2cccc(O)c2C(=O)C2=C(O)[C@]3(O)C(=O)C(C(N)=O)=C(O)[C@@H](N(C)C)[C@@H]3[C@@H](O)[C@@H]21 — mice with microfilariae (Brugia malayi; SCID mouse; dose not given, 6 weeks post-treatment, dosing x42d): 11%
COc1ccc(Nc2cnnc3cc(-c4ccc(S(=O)(=O)N5CCN(C)CC5)cc4)ccc23)cc1Cl — phenotypic severity score (Schistosoma mansoni; adult worms; 10 µM, 48 h; direction not given): 4
Cc1csc(-c2nnc(Nc3ccc(Oc4ncccc4-c4ccnc(N)n4)cc3)c3ccccc23)c1 — IC50 (HD-MB03; cell growth; 168 h, single agent): 1.47 nM
COc1ccccc1Oc1c(NS(=O)(=O)c2ccc(C(C)(C)C)cc2)nc(-c2ncccn2)nc1OCCO — inhibition (Nedd8-cullin1 interaction; neddylation, AlphaScreen; 100 µM): 9.2%
N#Cc1ccn2c(-c3ccncc3)c(-c3ccc(F)cc3)nc2c1 — log2 fold change (kinase binding, competitor, MIB/MS competition, item: RIM11; Candida albicans cell lysate; 100 nM; baseline: DMSO): -0.28
CN1CCN(S(=O)(=O)c2ccc(-c3ccc4c(Nc5ncccn5)cnnc4c3)cc2)CC1 — phenotypic severity score (Schistosoma mansoni; adult worms; 10 µM, 1 h; direction not given): 0
O=C([O-])[O-].O=C([O-])[O-].O=C([O-])[O-].[La+3].[La+3] — inhibition (Nedd8-cullin1 interaction; neddylation, AlphaScreen; 100 µM): 30.1%
CC1=C(Cn2cnc([N+](=O)[O-])n2)C(=O)c2ccccc2C1=O — killing (Schistosoma mansoni; adult worms; 25 µM, 24 h): 41.7%
Cc1c(C)c2c(c(C)c1OC(=O)c1cccnc1)CCC(C)(CCCC(C)CCCC(C)CCCC(C)C)O2 (mixture of isomers) — inhibition (Nedd8-cullin1 interaction; neddylation, AlphaScreen; 100 µM): -19.9%
CN1CCN(c2ncc(-c3ccc4c(Nc5ncccn5)cnnc4c3)cn2)CC1 — phenotypic severity score (Schistosoma mansoni; adult worms; 10 µM, 48 h; direction not given): 0
CC1=C(Cn2cc(CBr)nn2)C(=O)c2ccccc2C1=O — killing (Schistosoma mansoni; adult worms; 25 µM, 24 h): 40%
CC(C)NCC(O)c1ccc(O)c(O)c1 (stereo not shown) — sarcomere length (ventricular cardiomyocytes, C57BL/6 mouse; dose not given, 0.068 s): 1.72 µm
C[C@H](Oc1ccc(Br)cc1-c1ccon1)C(=O)O — difference from placebo (first response peak; human, tibialis anterior muscle; 100 mg, 15 Hz, single ascending dose): 4.18%
CC1=C(Cn2ccnn2)C(=O)c2ccccc2C1=O — killing (Schistosoma mansoni; adult worms; 25 µM, 24 h): 46%
O=C(O)CNC(=O)Cc1ccccc1 — sarcomere length (ventricular cardiomyocytes, C57BL/6 mouse; dose not given, 0.76 s): 1.72 µm
CC1=C(Cc2cn(CCN3CCNCC3)nn2)C(=O)c2ccccc2C1=O — killing (Schistosoma mansoni; adult worms; 10 µM, 24 h): 34.2%
CCC(C)n1ncn(-c2ccc(N3CCN(c4ccc(OCC5COC(Cn6cncn6)(c6ccc(Cl)cc6Cl)O5)cc4)CC3)cc2)c1=O (stereo not shown) — IC50 (HD-MB03; cell growth; 168 h, DMSO): 1700 nM
CN1CCN(S(=O)(=O)c2ccc(-c3ccc4nncc(Nc5ncccn5)c4c3)cc2)CC1 — phenotypic severity score (Schistosoma mansoni; adult worms; 10 µM, 24 h; direction not given): 0
COc1cnc2cccc(N3CCc4c(cc(Cn5ccnc5C)cc4-c4cn(C)nc4C(F)(F)F)C3=O)c2c1 — EC50 (DMS-273; cell growth, inhibitor; 120 h): 3160 nM
CC(C)(C)NCC(O)COc1cccc2c1CCC(=O)N2 (stereo not shown) — inhibition (Nedd8-cullin1 interaction; neddylation, AlphaScreen; 100 µM): 60.9%
COc1ccc(Nc2cnnc3ccc(-c4cnc(N5CCN(C)CC5)nc4)cc23)cc1 — phenotypic severity score (Schistosoma mansoni; adult worms; 10 µM, 24 h; direction not given): 1
Cn1cc(-c2ccc(-c3cncc(Cl)c3N3CCC4(CCNC4=O)CC3)cc2)cn1 — fold change in expression (COLO 205; microarray, item: NEAT1; concentration not given, 2 h; baseline: untreated cells): 3.8
CC1=C(Cc2cn(CCN3CCN(C(=O)OC(C)(C)C)CC3)nn2)C(=O)c2ccccc2C1=O — killing (Schistosoma mansoni; adult worms; 25 µM, 24 h): 33.3%
COc1ccc(Nc2cnnc3ccc(-c4ccc(S(=O)(=O)N5CCN(C)CC5)cc4)cc23)cc1Cl — phenotypic severity score (Schistosoma mansoni; adult worms; 10 µM, 24 h; direction not given): 1

Some of these lines once more:
C[C@H](Oc1ccc(Br)cc1-c1ccon1)C(=O)O — difference from placebo (first response peak; human, tibialis anterior muscle; 100 mg, 15 Hz, single ascending dose): 4.18%
CC1=C(Cn2ccnn2)C(=O)c2ccccc2C1=O — killing (Schistosoma mansoni; adult worms; 25 µM, 24 h): 46%
O=C(O)CNC(=O)Cc1ccccc1 — sarcomere length (ventricular cardiomyocytes, C57BL/6 mouse; dose not given, 0.76 s): 1.72 µm
